Assay results pooled from the literature.
Each line is one published result; not all experiments were run side by side. Several values in a cell are separate wells, animals, samples, runs or records. ± gives the spread as reported. Values after ≈ are worked out from the molar mass of the structure shown.
Sequence of UniProt P11712 (whole entry, looked up): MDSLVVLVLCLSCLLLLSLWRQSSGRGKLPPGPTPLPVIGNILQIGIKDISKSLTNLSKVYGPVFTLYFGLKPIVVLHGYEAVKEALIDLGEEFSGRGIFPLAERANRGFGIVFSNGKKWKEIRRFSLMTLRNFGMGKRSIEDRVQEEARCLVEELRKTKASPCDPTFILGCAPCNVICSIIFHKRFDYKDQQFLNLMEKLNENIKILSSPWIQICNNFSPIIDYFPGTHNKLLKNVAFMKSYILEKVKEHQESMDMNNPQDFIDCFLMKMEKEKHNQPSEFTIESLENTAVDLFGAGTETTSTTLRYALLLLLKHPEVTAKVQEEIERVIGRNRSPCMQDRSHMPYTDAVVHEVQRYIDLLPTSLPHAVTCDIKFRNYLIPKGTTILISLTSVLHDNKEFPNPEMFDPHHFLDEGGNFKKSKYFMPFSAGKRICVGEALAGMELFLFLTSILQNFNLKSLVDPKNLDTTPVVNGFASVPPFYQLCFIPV
Sequence of UniProt P36896 (whole entry, looked up): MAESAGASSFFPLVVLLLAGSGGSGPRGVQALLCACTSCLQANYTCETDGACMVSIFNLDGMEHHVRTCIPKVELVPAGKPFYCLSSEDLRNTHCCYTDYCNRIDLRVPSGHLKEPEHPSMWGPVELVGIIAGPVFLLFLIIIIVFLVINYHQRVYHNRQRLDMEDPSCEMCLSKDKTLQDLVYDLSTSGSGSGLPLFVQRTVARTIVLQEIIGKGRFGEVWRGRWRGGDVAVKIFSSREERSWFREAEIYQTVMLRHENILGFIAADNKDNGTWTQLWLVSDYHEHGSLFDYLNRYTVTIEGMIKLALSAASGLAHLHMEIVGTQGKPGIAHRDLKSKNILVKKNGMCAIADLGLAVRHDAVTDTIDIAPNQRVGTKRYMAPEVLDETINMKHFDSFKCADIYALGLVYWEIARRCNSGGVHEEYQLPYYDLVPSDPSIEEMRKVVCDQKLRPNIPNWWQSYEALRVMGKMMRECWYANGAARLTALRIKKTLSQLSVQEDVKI

O=C(Nc1cnccc1-c1ccc([18F])cc1)c1ccnc(NC(=O)C2CC2)c1
mean SUV (ex vivo biodistribution, gamma counting; GSK-3β overexpressing transgenic mouse, late stage, cecum; intravenous, 120 min post-injection): 8.82

C/C(N)=N/C(=N\S(=O)(=O)c1ccc(C(F)(F)F)cc1)N1C[C@H](c2ccccc2)C(c2ccc(Cl)cc2)=N1
half-life (male C57BL/6 mouse, brain; intravenous, 10 mg/kg): 450 min

CCN(CC)CC#CCNc1ccnc2cc(Cl)ccc12
revertants per well (Salmonella typhimurium; mini-Ames test; TA98; 1000.0 µg/well, with rat liver S9): 10

[11CH3]N1CCC(NC(=O)c2cc(-c3c(O)cc(O)cc3Oc3ccc([N+](=O)[O-])cc3)on2)CC1
tissue uptake (Wistar rat, female, healthy, urine; intravenous, 10 min): 2.7 ± 1 %ID

O=C(Nc1cnccc1-c1ccc([18F])nc1)c1ccnc(NC(=O)C2CC2)c1
SUV (FVB/NJ mouse, both sexes, liver; intravenous, 20 min, with: tariquidar 15 mg/kg iv): 8.83

N#CCNC(=O)c1ccc(C2CCCCC2)cc1
hepatic clearance (hepatocyte stability; cryopreserved mouse hepatocytes; 1 µM): 76 mL/min/kg

OCCn1nc(-c2ccccc2)c2c(Cl)c(-c3ccccc3)nnc21
AUC (mouse juvenile P6, plasma; intraperitoneal, 15 mg/kg): 8.55 µM·h

CN(O)C(=O)CCC(=O)NCCCN(CCCCN(CCCNC(=O)CCC(=O)N(C)O)C(=O)CCC(=O)N(C)O)C(=O)CCC(=O)N(C)O.[89Zr]
intact complex (radio-TLC; aqueous buffer; 7 d, pH 7.2, 37 °C, 89Zr-labelled complex, with: MgCl2 10-fold excess): 99.6 ± 0.4%

CCC(CC)n1c(Cc2cccs2)nc2cc(C(=O)N[C@@H](CC(=O)O)c3ccccc3)ccc21
volume of distribution (Vz) (Sprague-Dawley rat, male, plasma; ip, 10 mg/kg): 9.59 ± 3.36 L/kg

C=CC(=O)Nc1cc(Nc2nccc(-c3c[nH]c4ccccc34)n2)c(OC)cc1N(C)CCN(C)C
percentage recovery (storage stability; human plasma samples; 30 d, -80 °C, LQC level; reference: nominal concentration): 13.3%

COC(=O)[C@@]1(C(C)C)C=C(C(=O)Nc2cccc(C(=O)Nc3ccc(Nc4nccc(-c5cccnc5)n4)c(C)c3)c2)C(=O)CC1
compound remaining (rat, plasma; 10 µM, 20 min): 105%

CNC(=O)C1CCCN(C(=O)C2CC3CCC2N3C(=O)[C@@H]2C[C@@H](O)CN2C(=O)NCc2cccc(Cl)c2F)C1 (mixture of isomers)
remaining activity (Cytochrome P450 2C9 (CYP2C9, Homo sapiens, UniProt P11712); preincubation without NADPH; human; 5.56 µM; reference: negative control): 98% and 96.2% and 101%

O=C(NCc1cccc(Cl)c1)c1ccc(C2CCCCC2)cc1
hepatic clearance (hepatocyte stability; cryopreserved mouse hepatocytes; 1 µM): 76 mL/min/kg

COc1cccc(OC)c1-c1cc(C(=O)NC2(C(=O)O)C3CC4CC(C3)CC2C4)nn1-c1ccc(C(=O)N(C)CCCN(C)C(=O)[C@H](CCCCNC(=O)[C@H](CC(C)C)NC(=O)C2OC2C(=O)O)NC(=O)CN2CCN(CC(=O)[O-])CCN(CC(=O)[O-])CCN(CC(=O)[O-])CC2)cc1C(C)C.[177Lu+3] (mixture of isomers)
tumour-to-bone ratio (mouse, HT-29 xenograft; 4 h post injection, biodistribution; reference: tumour over bone uptake): 12.7

O=C(c1ccc([C@H]2[C@@H](F)[C@@H](F)C[C@@H](F)[C@H]2F)cc1)N1CCCC1
hepatic clearance (liver microsome stability; human liver microsomes; 1 µM, without NADPH): 3.9 mL/min/kg

C#Cc1c(F)ccc2cc(O)cc(-c3ncc4c(N5CC6CCC(C5)N6C(=O)OC(C)OC(=O)CC[C@@H](C)[C@H]5CC[C@H]6[C@@H]7CC[C@@H]8C[C@H](O)CC[C@]8(C)[C@H]7C[C@H](O)[C@]56C)nc(OC[C@@]56CCCN5C[C@H](F)C6)nc4c3F)c12 (stereo partly drawn)
t1/2 (refers to: prodrug; mouse whole blood; 1 µM): 1.78 min

COCC1CN(C2CCN(c3cc(OC)c(Nc4ncc(Br)c(Nc5ccc6c(c5P(C)(C)=O)OCCO6)n4)cc3C)CC2)C1
t1/2 (EGFR-mutant NSCLC patients, plasma; oral, 90 mg single dose, geometric mean): 1760 min

CN(C)c1cccc(-c2ccc([C@H]3[C@@H](F)[C@@H](F)C[C@@H](F)[C@H]3F)cc2)c1
hepatic clearance (hepatocyte stability; cryopreserved human hepatocytes; 1 µM): 10 mL/min/kg

CN1C(=O)[C@@H](Cc2ccc(O)c(I)c2)NC(=O)CNC(=O)[C@H](Cc2ccc3ccccc3c2)NC(=O)[C@H](CCCNC(=N)N)NC(=O)[C@H]1CCCNC(=O)c1ccc(CNC(=O)CN2CCN(CC(=O)O)CCN(CC(=O)O)CCN(CC(=O)O)CC2)cc1 [lutetium-177 labelled]
total absorbed dose (1; human, extrapolated from mouse, gallbladder wall): 0.019 mGy/MBq

CCCN(C)c1cc(C(F)(F)F)nc(SCCC(=O)NCc2ccco2)n1
ECG parameters (electrocardiography; Wistar rat; intraperitoneal, 25 mg/kg, 2 h post-dose, isoflurane anaesthesia; reference: vehicle control): no effect

C#CCOc1ccc(/C=C2\SC(=O)N(CC(=O)NCc3ccccc3)C2=O)cc1
aqueous solubility (shake-flask HPLC; water; 40 h, 25 °C): 5.9 µg/mL (≈ 14.5 µM)

CN([O-])C(=O)CN1CCN(CC(=O)N(C)[O-])CCN(Cc2ccccn2)CC1.[89Zr+4]
tracer uptake (mouse, kidney; intravenous, 1 h): 1.64 %ID/g

Cc1nc(N)nc2c1C(=O)N[C@@H](c1ccc(F)cc1-c1cccc(O[11CH3])n1)C2
tracer uptake (ex vivo biodistribution; mice, MDA-MB-231 subcutaneous xenograft, muscle; 60 min post-injection, baseline, vehicle pre-treatment): 23.1 ± 1.6 %ID

Nc1ncc(-c2cc(-c3cnn(CC(F)(F)F)c3)ncc2F)nc1C(=O)NC1CNCC(F)C1 (stereo not drawn)
remaining binding (PDPK1; KINOMEscan; 1 µM; reference: DMSO control): 99%

Fc1ccc(OCC2CN(Cc3ncn4ccccc34)CCC2(F)F)cc1 (stereo not drawn)
fu (equilibrium dialysis; human plasma): 0.0076

C=CC(=O)Nc1cc(Nc2nccc(-c3cn(C)c4ccccc34)n2)c(OC)cc1N(C)CCNC
percentage recovery (storage stability; human dried blood spot samples; 30 d, -80 °C, LQC level; reference: nominal concentration): 47.1%

CCCC[C@H](NC(=O)CNC(=O)CNC(=O)[C@H](CCCCNC(=O)[C@H](CC(=O)O)NC(=O)C(C)c1ccc(CC(C)C)cc1)NC(=O)CN1CCN(CC(=O)O)CCN(CC(=O)O)CCN(CC(=O)O)CC1)C(=O)N[C@H]1CC(=O)NCCCC[C@@H](C(N)=O)NC(=O)[C@H](Cc2c[nH]c3ccccc23)NC(=O)[C@H](CCCNC(=N)N)NC(=O)[C@@H](Cc2ccccc2)NC(=O)[C@H](Cc2c[nH]cn2)NC1=O (stereo partly drawn) [lutetium-177 labelled]
tumour-to-tissue ratio (C57 mice, tumour; intravenous, 0.037 MBq, 24 h; reference: muscle): 43.2

CCN(CC)c1ccc2c(c1)O[B-]1(c3ccccc3)OC(=O)C(c3ccccc3)=N[N+]1=C2C(C)C (stereo not drawn)
fluorescence emission maximum (toluene): 514 nm

C=C[C@]1(C)C[C@@H](OC(=O)CSc2ccc(NC(=O)c3ccco3)cc2)[C@]2(C)[C@H](C)CC[C@]3(CCC(=O)[C@H]32)[C@@H](C)[C@@H]1O
elimination half-life (chicken, Mycoplasmoides gallisepticum infected, plasma; intramuscular, 80 mg/kg): 4.23 h

CN(C)c1cccc(-c2ccc(C3CCCCC3)cc2)c1
hepatic clearance (liver microsome stability; mouse liver microsomes; 1 µM): 82 mL/min/kg

C=CC(=O)Nc1cccc(Cn2ncc3cnc(Nc4cnn(CCOC)c4)nc32)c1
percent of control (LATS2 human; binding, KINOMEscan; 100 nM; lower = stronger binding): 83%

O=C(CN1CN(c2ccc(Cl)c(Cl)c2)C2(CCN(C(=O)c3ccc4[nH]ncc4c3)CC2)C1=O)NCC(F)(F)F
CLint (human liver microsomes): 350 µL/min/mg protein

COc1cccc(OC)c1-c1cc(C(=O)NC2(C(=O)O)C3CC4CC(C3)CC2C4)nn1-c1ccc(C(=O)N(C)CCOCCOCCN(C)C(=O)[C@H](CCCCNC(=O)[C@H](CC(C)C)NC(=O)C2OC2C(=O)O)NC(=O)CN2CCN(CC(=O)[O-])CCN(CC(=O)[O-])CCN(CC(=O)[O-])CC2)cc1C(C)C.[177Lu+3] (mixture of isomers)
tumour-to-bone ratio (mouse, HT-29 xenograft; 4 h post injection, biodistribution; reference: tumour over bone uptake): 6.47

COC(=O)[C@@]1(C)C=C(C(=O)Nc2cccc(C(=O)Nc3ccc(Nc4nccc(-c5cccnc5)n4)c(C)c3)c2)C(=O)CC1
compound remaining (Wistar rat, male, plasma; 1 µM, 10 min): 55.3%

COc1cccc(OC)c1-c1cc(C(=O)NC2(C(=O)O)C3CC4CC(C3)CC2C4)nn1-c1ccc(C(=O)N(C)CCOCCN(C)C(=O)[C@H](CCCCNC(=O)[C@H](CC(C)C)NC(=O)C2OC2C(=O)O)NC(=O)CN2CCN(CC(=O)[O-])CCN(CC(=O)[O-])CCN(CC(=O)[O-])CC2)cc1C(C)C.[177Lu+3] (mixture of isomers)
tumour-to-bone ratio (mouse, HT-29 xenograft; 24 h post injection, biodistribution; reference: tumour over bone uptake): 6.71

COC1C=COC2(C)Oc3c(C)c(O)c4c(c3C2=O)C2=NC3(CCN(CC(C)C)CC3)NC2=C(NC(=O)C(C)=CC=CC(C)C(O)C(C)C(O)C(C)C(OC(=O)Nc2cscn2)C1C)C4=O (stereo not drawn)
fAUC/MIC ratio (CD-1 mouse female, plasma; oral, 10 mg/kg): 24.8

Cc1nn(-c2cccc(N)c2)c(=O)c2cnc(Nc3ccc(N4CCNCC4)cc3)nc12
IC50 (ACVR1B (Homo sapiens, UniProt P36896); enzyme activity, inhibitor): > 10 µM

COc1cccc(OC)c1-c1cc(C(=O)NC2(C(=O)O)C3CC4CC(C3)CC2C4)nn1-c1ccc(C(=O)N(C)CCCN(C)CCCN(C)C(=O)[C@H](CCCCNC(=O)[C@H](CC(C)C)NC(=O)C2OC2C(=O)O)NC(=O)CN2CCN(CC(=O)[O-])CCN(CC(=O)[O-])CCN(CC(=O)[O-])CC2)cc1C(C)C.[177Lu+3] (mixture of isomers)
tumour-to-blood ratio (mouse, HT-29 xenograft; 4 h post injection, biodistribution; reference: tumour over blood uptake): 7.99

O=C(N1CCCCC1)C12CC(c3ccccc3)(C1)C2(F)F
elimination rate constant (pooled human liver microsomes; 2 µM, pH 7.4): 0.000133 s⁻¹

C=C(NC(=O)c1csc(-c2nc3c(cc2O)-c2nc(cs2)C(=O)NC(C(C)O)C(=O)NC(=C(C)OC)c2nc(cs2)C(=O)NC2c4nc(cs4)C(=O)NC(COC(=O)c4c5c6c(cccc6n4O)COC(=O)C(OC4CC(C)(O)C(N(C)C)C(C)O4)C2OC5)c2nc-3cs2)n1)C(N)=O (stereo not drawn)
half-life (Sprague-Dawley rat, plasma; intravenous, infusion): 282 min

CS(=O)(=O)c1ccc(-c2ccc([C@H]3[C@@H](F)[C@@H](F)C[C@@H](F)[C@H]3F)cc2)cn1
hepatic clearance (hepatocyte stability; cryopreserved rat hepatocytes; 1 µM): 10 mL/min/kg

COc1cnc2cccc(N3CCc4c(cc(Cn5ccnc5)cc4-c4cn(C)nc4C(F)(F)F)C3=O)c2c1
AUC extrapolated fraction (CD-1 mouse, male, plasma; intraperitoneal, 50 mg/kg): 0%

CCN(CC)c1ccc2c(c1)O[B-]1(c3ccccc3)OC(=O)C(c3ccccc3)=N[N+]1=C2 (stereo not drawn)
fluorescence emission maximum (toluene): 509 nm

COC1CN([C@H]2CC[C@H]([C@@]3(C)Oc4c(Cl)cc(C(=O)NCc5c(SC)cc(C)[nH]c5=O)c(C)c4O3)CC2)C1
log2 fold change (RNA-seq, refers to: ATP7B mouse homolog; mouse, HT-1376 xenograft, whole blood; dose not given; reference: vehicle): 0.227

CC(C)C[C@H](NC(=O)[C@H](CCCN)NC(=O)CNC(=O)[C@@H](NC(=O)[C@H](C)NC(=O)[C@@H]1CSCSC[C@H](NC(=O)CC[C@H](N)C(=O)O)C(=O)N[C@@H](CC(N)=O)C(=O)N[C@@H]([C@@H](C)O)C(=O)N[C@@H](C)C(=O)N[C@@H]([C@@H](C)O)C(=O)N1)[C@@H](C)O)C(=O)N[C@@H](C)C(=O)N[C@@H](CCC(=O)O)C(=O)N[C@@](C)(Cc1ccccc1)C(=O)N[C@@H](CC(C)C)C(=O)N[C@H](C(=O)N[C@@H](CCCNC(=N)N)C(=O)N[C@@H](CO)C(=O)N[C@@H](CO)C(=O)N[C@@H](CC(N)=O)C(=O)N(C)[C@@H](CC(N)=O)C(=O)N[C@@H](Cc1ccccc1)C(=O)NCC(=O)N1CCC[C@H]1C(=O)N[C@@H](CCCCNC(=O)CC[C@H](NC(=O)CC[C@H](NC(=O)CCCCCCCCCCCCCCCCCCC(=O)O)C(=O)O)C(=O)O)C(=O)N[C@@H](CC(C)C)C(=O)N1CCC[C@H]1C(=O)N1CCC[C@H]1C(=O)N[C@H](C(=O)N[C@@H](CCC(=O)O)C(=O)N[C@H](C(=O)NCC(=O)N[C@@H](CO)C(=O)N[C@@H](CC(N)=O)C(=O)N[C@H](C(=O)N[C@@H](Cc1ccc(O)cc1)C(N)=O)[C@@H](C)O)C(C)C)[C@@H](C)O)C(C)C
half-life (human, plasma; subcutaneous, 1.2 mg, single dose, healthy volunteers): 18600 min

Excerpt of the above:
O=C(Nc1cnccc1-c1ccc([18F])nc1)c1ccnc(NC(=O)C2CC2)c1
SUV (FVB/NJ mouse, both sexes, liver; intravenous, 20 min, with: tariquidar 15 mg/kg iv): 8.83

CCCC[C@H](NC(=O)CNC(=O)CNC(=O)[C@H](CCCCNC(=O)[C@H](CC(=O)O)NC(=O)C(C)c1ccc(CC(C)C)cc1)NC(=O)CN1CCN(CC(=O)O)CCN(CC(=O)O)CCN(CC(=O)O)CC1)C(=O)N[C@H]1CC(=O)NCCCC[C@@H](C(N)=O)NC(=O)[C@H](Cc2c[nH]c3ccccc23)NC(=O)[C@H](CCCNC(=N)N)NC(=O)[C@@H](Cc2ccccc2)NC(=O)[C@H](Cc2c[nH]cn2)NC1=O (stereo partly drawn) [lutetium-177 labelled]
tumour-to-tissue ratio (C57 mice, tumour; intravenous, 0.037 MBq, 24 h; reference: muscle): 43.2

COc1cnc2cccc(N3CCc4c(cc(Cn5ccnc5)cc4-c4cn(C)nc4C(F)(F)F)C3=O)c2c1
AUC extrapolated fraction (CD-1 mouse, male, plasma; intraperitoneal, 50 mg/kg): 0%
